Experimental data pooled from the literature.
Compare with care: the assays were run in different laboratories. Values joined by “and” are separate records of one study, mostly repeats; a detail may differ. Numbers after ± are the reported error.
GUK1: GUK1 (Homo sapiens, UniProt Q16774)
Sequence of UniProt Q16774 (whole entry, looked up): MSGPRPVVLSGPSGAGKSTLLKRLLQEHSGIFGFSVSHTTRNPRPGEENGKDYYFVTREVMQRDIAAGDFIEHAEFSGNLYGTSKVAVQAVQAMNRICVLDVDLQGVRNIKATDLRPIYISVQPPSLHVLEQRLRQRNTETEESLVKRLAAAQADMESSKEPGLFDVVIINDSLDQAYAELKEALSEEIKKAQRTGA
MT-CYB/UQCRFS1: MT-CYB/UQCRFS1 (Homo sapiens, UniProt P00156+P47985)
Sequence of UniProt P47985 (whole entry, looked up): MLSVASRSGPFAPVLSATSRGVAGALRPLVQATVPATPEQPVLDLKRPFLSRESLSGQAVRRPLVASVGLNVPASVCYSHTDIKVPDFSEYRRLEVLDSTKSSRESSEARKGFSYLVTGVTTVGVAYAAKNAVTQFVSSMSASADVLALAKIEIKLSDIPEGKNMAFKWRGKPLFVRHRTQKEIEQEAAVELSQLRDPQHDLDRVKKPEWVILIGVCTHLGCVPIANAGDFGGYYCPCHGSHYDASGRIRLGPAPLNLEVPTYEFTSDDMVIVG
Sequence of UniProt P00156 (whole entry, looked up): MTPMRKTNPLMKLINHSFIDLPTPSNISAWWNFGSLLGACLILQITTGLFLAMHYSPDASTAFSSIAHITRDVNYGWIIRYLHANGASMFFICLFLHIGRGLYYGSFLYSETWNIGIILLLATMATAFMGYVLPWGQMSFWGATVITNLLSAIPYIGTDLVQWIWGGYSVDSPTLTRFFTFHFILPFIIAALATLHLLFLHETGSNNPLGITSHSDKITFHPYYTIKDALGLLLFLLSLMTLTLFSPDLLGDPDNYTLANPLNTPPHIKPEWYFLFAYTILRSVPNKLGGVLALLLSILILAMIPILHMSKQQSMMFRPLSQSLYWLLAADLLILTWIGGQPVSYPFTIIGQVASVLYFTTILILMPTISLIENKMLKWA
TGFBR1: TGF-beta receptor type-1 (TGFBR1, Homo sapiens, UniProt P36897)
Sequence of UniProt P36897 (whole entry, looked up): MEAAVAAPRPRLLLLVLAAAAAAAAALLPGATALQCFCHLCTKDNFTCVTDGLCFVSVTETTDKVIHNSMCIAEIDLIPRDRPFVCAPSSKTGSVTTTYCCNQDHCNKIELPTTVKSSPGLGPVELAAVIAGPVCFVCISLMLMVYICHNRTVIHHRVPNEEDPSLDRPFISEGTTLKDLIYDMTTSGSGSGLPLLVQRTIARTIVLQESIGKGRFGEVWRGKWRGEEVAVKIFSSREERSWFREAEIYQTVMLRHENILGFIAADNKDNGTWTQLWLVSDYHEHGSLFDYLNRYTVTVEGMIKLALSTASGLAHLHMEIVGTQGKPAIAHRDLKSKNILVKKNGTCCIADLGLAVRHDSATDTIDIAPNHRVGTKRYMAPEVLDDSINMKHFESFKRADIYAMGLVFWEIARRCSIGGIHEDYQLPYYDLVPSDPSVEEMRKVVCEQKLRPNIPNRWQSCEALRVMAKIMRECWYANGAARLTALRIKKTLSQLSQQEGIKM
Dehaloperoxidase B ferric: Dehaloperoxidase B, ferric (Amphitrite ornata, UniProt Q9NAV7)
KEAP1 Kelch domain: Kelch-like ECH-associated protein 1, Kelch domain (KEAP1, Homo sapiens, UniProt Q14145)
Sequence of UniProt Q14145 (whole entry, looked up): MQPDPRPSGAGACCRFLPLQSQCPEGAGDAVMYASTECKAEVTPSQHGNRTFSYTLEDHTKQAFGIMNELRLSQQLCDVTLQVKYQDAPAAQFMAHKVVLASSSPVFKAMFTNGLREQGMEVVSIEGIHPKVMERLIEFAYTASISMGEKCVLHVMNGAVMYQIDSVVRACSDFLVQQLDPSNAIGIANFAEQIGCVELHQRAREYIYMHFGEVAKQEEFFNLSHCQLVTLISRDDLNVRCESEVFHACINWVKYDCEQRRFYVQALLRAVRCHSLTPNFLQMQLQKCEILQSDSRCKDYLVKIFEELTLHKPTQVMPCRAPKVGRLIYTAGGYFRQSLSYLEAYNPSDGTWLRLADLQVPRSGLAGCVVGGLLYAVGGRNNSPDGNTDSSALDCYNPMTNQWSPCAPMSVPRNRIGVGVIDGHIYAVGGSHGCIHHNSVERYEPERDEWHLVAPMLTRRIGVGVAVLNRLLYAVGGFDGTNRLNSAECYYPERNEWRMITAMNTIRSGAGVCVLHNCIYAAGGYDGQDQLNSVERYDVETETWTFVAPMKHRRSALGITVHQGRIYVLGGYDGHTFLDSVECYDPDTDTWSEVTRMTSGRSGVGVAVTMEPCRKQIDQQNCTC
C3AR1: C3a anaphylatoxin chemotactic receptor (C3AR1, Homo sapiens, UniProt Q16581)
Sequence of UniProt Q8TEQ6 (whole entry, looked up): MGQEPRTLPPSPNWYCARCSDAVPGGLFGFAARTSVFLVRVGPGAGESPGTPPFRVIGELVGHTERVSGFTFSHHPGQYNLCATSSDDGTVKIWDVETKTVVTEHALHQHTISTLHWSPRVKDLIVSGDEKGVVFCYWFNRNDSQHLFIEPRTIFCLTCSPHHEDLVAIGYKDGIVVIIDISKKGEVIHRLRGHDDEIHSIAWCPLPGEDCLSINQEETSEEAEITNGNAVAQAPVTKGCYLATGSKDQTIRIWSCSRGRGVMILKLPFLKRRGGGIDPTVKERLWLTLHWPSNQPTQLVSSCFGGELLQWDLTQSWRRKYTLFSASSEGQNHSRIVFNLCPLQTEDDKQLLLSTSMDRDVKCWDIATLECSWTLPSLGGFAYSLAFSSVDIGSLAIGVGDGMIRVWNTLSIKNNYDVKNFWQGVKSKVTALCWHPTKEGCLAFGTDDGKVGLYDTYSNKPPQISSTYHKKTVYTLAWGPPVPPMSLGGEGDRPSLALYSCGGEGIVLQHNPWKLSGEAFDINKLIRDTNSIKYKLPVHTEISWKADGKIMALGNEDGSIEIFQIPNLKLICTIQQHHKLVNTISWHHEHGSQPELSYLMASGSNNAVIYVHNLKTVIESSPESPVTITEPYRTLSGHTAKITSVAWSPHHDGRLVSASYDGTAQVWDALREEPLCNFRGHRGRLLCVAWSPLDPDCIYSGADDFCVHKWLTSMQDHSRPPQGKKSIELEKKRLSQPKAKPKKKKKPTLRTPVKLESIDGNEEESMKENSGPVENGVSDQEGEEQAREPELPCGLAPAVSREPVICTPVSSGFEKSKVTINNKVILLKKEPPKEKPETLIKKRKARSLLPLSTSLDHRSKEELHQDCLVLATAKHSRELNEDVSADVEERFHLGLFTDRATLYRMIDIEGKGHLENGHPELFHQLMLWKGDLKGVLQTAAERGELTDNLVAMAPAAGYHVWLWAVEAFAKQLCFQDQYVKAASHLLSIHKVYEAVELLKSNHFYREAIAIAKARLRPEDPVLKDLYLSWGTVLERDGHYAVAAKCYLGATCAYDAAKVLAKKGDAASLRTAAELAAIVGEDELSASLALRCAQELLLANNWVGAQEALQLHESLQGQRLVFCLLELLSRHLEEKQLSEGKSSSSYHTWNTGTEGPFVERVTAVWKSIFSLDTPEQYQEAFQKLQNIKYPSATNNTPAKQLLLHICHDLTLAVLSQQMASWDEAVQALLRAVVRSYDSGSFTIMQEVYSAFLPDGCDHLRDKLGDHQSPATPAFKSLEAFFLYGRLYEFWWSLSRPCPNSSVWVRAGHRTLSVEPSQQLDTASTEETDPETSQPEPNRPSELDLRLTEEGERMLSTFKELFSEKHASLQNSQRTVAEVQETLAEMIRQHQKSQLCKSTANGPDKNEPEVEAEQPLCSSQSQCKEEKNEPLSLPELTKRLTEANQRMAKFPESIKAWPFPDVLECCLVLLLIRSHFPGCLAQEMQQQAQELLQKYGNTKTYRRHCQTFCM
Sequence of UniProt O76090 (whole entry, unmodified, looked up): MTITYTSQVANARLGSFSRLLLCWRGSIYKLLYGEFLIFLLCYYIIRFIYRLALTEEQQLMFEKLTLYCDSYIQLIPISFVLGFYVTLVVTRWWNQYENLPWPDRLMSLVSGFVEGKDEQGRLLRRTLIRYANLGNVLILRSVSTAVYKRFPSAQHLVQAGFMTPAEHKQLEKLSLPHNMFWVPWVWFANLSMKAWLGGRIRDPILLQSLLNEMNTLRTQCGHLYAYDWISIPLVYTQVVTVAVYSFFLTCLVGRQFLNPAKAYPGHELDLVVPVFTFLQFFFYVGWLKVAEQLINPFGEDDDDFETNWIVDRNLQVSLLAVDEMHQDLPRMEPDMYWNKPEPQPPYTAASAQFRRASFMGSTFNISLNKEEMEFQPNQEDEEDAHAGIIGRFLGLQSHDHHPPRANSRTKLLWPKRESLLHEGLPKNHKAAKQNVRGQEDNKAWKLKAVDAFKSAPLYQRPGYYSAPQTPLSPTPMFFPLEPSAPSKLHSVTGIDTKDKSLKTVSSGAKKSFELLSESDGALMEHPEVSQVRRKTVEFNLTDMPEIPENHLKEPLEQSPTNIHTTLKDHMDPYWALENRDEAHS
Sequence of UniProt P51575 (whole entry, unmodified, looked up): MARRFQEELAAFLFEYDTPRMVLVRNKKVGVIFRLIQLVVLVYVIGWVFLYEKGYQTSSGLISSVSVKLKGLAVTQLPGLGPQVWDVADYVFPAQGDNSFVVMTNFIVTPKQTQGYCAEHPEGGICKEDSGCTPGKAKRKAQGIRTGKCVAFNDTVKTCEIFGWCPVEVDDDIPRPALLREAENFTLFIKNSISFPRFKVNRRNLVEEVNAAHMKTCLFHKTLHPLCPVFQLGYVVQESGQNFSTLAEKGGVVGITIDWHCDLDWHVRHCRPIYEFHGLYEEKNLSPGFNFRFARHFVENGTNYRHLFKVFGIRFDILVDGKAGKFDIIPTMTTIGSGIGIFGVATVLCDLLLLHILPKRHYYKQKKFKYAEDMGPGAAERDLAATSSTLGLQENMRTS
Sequence of UniProt Q16581 (whole entry, looked up): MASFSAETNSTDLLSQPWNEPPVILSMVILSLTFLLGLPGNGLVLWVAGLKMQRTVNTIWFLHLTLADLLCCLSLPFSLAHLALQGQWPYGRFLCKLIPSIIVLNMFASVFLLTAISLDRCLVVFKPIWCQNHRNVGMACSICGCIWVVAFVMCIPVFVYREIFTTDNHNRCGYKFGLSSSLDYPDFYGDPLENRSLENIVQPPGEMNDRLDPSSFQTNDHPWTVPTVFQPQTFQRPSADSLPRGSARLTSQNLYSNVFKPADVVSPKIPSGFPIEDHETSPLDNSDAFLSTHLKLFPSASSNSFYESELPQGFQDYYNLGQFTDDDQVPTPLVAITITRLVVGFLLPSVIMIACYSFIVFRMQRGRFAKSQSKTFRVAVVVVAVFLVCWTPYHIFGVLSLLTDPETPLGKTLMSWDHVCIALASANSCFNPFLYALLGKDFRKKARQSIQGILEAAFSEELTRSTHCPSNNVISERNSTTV

Nc1ncnc2c1ncn2[C@@H]1O[C@H](CO[P@](=O)(O)O[P@](=O)(O)O[P@@](=O)(O)S)[C@@H](O)[C@H]1O gave a ΔH of -0.205 kcal/mol (GUK1; ITC; molar ratio 3.506).
OC[C@H]1OC(O)[C@H](O)[C@@H](O)[C@@H]1O (stereo partly drawn) gave a Kia of 3280 µM (hexokinase, yeast; substrate; pH 8.0, 25 °C, MgCl2 1.5 mM, added: ATP varied).
For N[C@H]1[C@H](O[C@H]2[C@H](O)[C@@H](N)[C@H](O[C@H]3[C@H](O)[C@@H](N)[C@H](O[C@H]4[C@H](O)[C@@H](N)C(O)O[C@@H]4CO)O[C@@H]3CO)O[C@@H]2CO)O[C@H](CO)[C@@H](O)[C@@H]1O (stereo partly drawn), “competition of LCO binding” read 0% and 3.19% and 0.3% (LysM receptor-like kinase (Brachypodium distachyon, UniProt A0A0Q3FRN3); radioligand binding, competition binding; membrane fractions; 2 µM, added: radiolabelled LCO-V(C18:1,NMe)).
With Cc1cccc(N(O)N=Nc2ccc(S(=O)(=O)Nc3cc(C)on3)cc2)c1 the inhibition was 30 ± 2.09% (α-glucosidase, rat intestine; enzyme activity; 180 µg/mL, added: 4-nitrophenyl α-D-glucopyranoside).
For NC(=O)NOCCCCCCCCCCCCCC[P+](c1ccccc1)(c1ccccc1)c1ccccc1.O=C([O-])C(F)(F)F, “oxygen consumption rate” read 22.9 ± 5.25% (MT-CYB/UQCRFS1; complex III-dependent respiration, Seahorse XF96; HCT-116; 6 µM, 24 h; reference: control).
Cc1cc(Nc2cc(N3CCN(C)CC3)nc(Sc3ccc(NC(=O)C4CC4)cc3)n2)[nH]n1 gave a remaining activity of 108% (Dual specificity protein kinase CLK2 (CLK2, Homo sapiens, UniProt P49760); kinase activity, KinaseProfiler; 0.03 µM, species human; reference: control).
For c1coc(-c2n[nH]cc2-c2ccnc3ccccc23)c1, the selectivity ratio was 1 (TGFBR1; reference: IC50 on target over Yck2).
O=C1OC2COC(=O)C2C=C1NC(=O)c1ccc(Cl)cc1 (stereo not drawn) gave a Hill slope of -0.6 (Protein lin-28 homolog A (Mus musculus, UniProt Q8K3Y3)).
With CC[C@@H]1[C@H](F)C(=O)N[C@@H]1COc1nccc2cc(C(N)=O)c(OC)cc12 the inhibition was 23.1% (STE20-related kinase adapter protein beta (Homo sapiens, UniProt Q9C0K7); ATP probe binding, KiNativ profiling, measured: Lys1 probe site; THP-1 cell lysate; 0.04 mM).
Nc1ncnc2c1ncn2[C@@H]1O[C@H](COP(=O)(O)OP(=O)(O)OP(=O)(O)O)[C@@H](O)[C@H]1O gave a kcat of 21 ± 9 s⁻¹ (Creatine kinase U-type, mitochondrial (CKMT1A, Homo sapiens, UniProt P12532); substrate, ADP-Glo luminescence; pH 8.5, forward reaction, WT mutant, added: second substrate in excess).
The current density of Nc1ccc(C(=O)O)cc1 is reported as 8.09 pA/pF and 43.9 pA/pF and 17.9 pA/pF and 24.4 pA/pF and 12.5 pA/pF and 15.4 pA/pF (BEST1, with wild-type BEST1 (Homo sapiens, UniProt O76090, L234P); ion current, whole-cell patch clamp; HEK293 co-expressing mutant and wild-type; concentration not given, voltage 80 mV).
CCN1CCC[C@H]1CNC(=O)c1c(O)c(Cl)cc(Cl)c1OC: “log2 fold change” -0.017 (Adhesion G protein-coupled receptor A1 (ADGRA1, Homo sapiens, UniProt Q86SQ6); β-arrestin recruitment, TANGO luminescence, measured: GPR123; concentration not given; reference: basal luminescence).
CC(=O)c1n[nH]c2ccc(-c3cnc4ccc(N(C)C5CCOCC5)nn34)cc12: “TREM1/DAP12 reporter signal” “no effect” (TYRO protein tyrosine kinase-binding protein, with TREM1 (TYROBP, Homo sapiens, UniProt O43914); inhibitor; split luciferase reporter cells; 1 µM, after wash; reference: without wash).
With CC(NC(=O)CCCc1ccc2ccc3cccc4ccc1c2c34)C(=O)NO (stereo not drawn) the binding stoichiometry was 0.9 ± 0.1 (Histone deacetylase 8 (HDAC8, Homo sapiens, UniProt Q9BY41); ITC; concentration not given).
CC(=O)N([O-])CCCCCNC(=O)CCC(=O)N([O-])CCCCCNC(=O)CCC(=O)N([O-])CCCCCN.[Fe+3] — result for “maximum fluorescence quenching”: about 40% (uncharacterized protein (Bordetella pertussis, UniProt Q7VXW9); siderophore binding, fluorescence quenching titration; pH 6.5, added: ferric siderophore).
O=CNc1ccc(Br)cc1C=O: “share of total products” 0.5% (Dehaloperoxidase B ferric; product, HPLC; added: 5-bromoindole 500 µM, H2O2 1000 µM).
The activation of CCCCC[C@H](O)/C=C/[C@H]1C(=O)C[C@H](O)[C@@H]1C/C=C\CCCC(=O)O is reported as 99.9% (Prostaglandin D2 receptor (PTGDR, Homo sapiens, UniProt Q13258); agonist; 0.1562 µM).
With COc1cc(NC(=O)c2cscn2)ccc1/N=N/c1ccccc1Cl the activation was 37.5% (Metabotropic glutamate receptor 8 (GRM8, Homo sapiens, UniProt O00222); positive allosteric modulator, IP accumulation; HEK293; 30 µM, in the dark, added: low-dose orthosteric agonist).
CC(C)[C@H](NC(=O)c1cc(-c2cnn3cc(-c4ccc(OCCN5CCCCC5)cc4)cnc23)cs1)C(F)(F)F has a relative inhibition of 0.0455 (TGFBR1; radiometric kinase; 15 nM; reference: TGFBR1 over ULK1).
The ΔH of CC(=O)N[C@@H](C)C(=O)N[C@@H](CC(N)=O)C(=O)NCC(=O)N[C@@H](CC(N)=O)C(=O)N[C@@H](C)C(=O)N[C@@H](CC(N)=O)C(=O)N[C@@H](CCC(=O)O)C(=O)N[C@@H](CCC(=O)O)C(=O)N[C@@H](CC(N)=O)C(=O)NCC(=O)N[C@@H](CCC(=O)O)C(=O)N[C@@H](CCC(N)=O)C(=O)N[C@@H](CCC(=O)O)C(=O)N[C@@H](C)C(=O)N[C@@H](CC(=O)O)C(=O)N[C@@H](CC(N)=O)C(=O)N[C@@H](CCC(=O)O)C(=O)N[C@H](C(=O)N[C@@H](CC(=O)O)C(N)=O)C(C)C is reported as -17.53 ± 0.093 kcal/mol (KEAP1 Kelch domain; binding, ITC; pH 7, 298.15 K).
O=C(COP(=O)(O)O)[C@@H](O)[C@H](O)[C@H](O)COP(=O)(O)O — result for “thermal stability ratio”: 0.636 and 0.389 and 0.5 (Gem-associated protein 5 (Homo sapiens, UniProt Q8TEQ6); thermal proteome profiling, measured: GEMIN5; HepG2 cell lysate; concentration not given, 57 over 37 °C; reference: compound over control).
NC(=O)NOCCCCCCCCCCCCCCCCCCCC[P+](c1ccccc1)(c1ccccc1)c1ccccc1.O=C([O-])C(F)(F)F — result for “oxygen consumption rate”: 107% (MT-CYB/UQCRFS1; complex III-dependent respiration, Seahorse XF96; HCT-116; 0.1 µM, 24 h; reference: control).
Nc1ncnc2c1ncn2[C@@H]1O[C@H](COP(=O)(O)OP(=O)(O)O)[C@@H](O)[C@H]1O gave a Km of 1520 ± 461 µM (F-type ATP synthase, Macaca mulatta muscle; substrate, on-column ATP synthesis; pH 7.4).
For CCCC(CCC)c1nc2c(Nc3ccc(C#CCCCCCCCCN)cc3)nc3ccccc3c2[nH]1, off-target affinity read “inactive” (D(1A) dopamine receptor (DRD1, Homo sapiens, UniProt P21728); PDSP screening).
The activation of CN1CCN(c2cc(-c3ccncc3)c(-c3ccc4ccccc4c3)nn2)CC1 is reported as 2.6% (C3AR1; agonist, FLIPR; 12.5 µM).
For CCC1(O)CCCN(C(=O)c2ccc(-c3ccc(F)c(NC(=O)CCl)c3)cc2)C1 (stereo not drawn), the protein adduct was 19% (DNA dC->dU-editing enzyme APOBEC-3A (Homo sapiens, UniProt P31941); covalent modifier, intact protein mass spectrometry, measured: adduct +26691 Da; 250 µM, 3 h, 10-fold molar excess).
For NC(=O)NOCCCCCCCCCCCCCCCC[P+](c1ccccc1)(c1ccccc1)c1ccccc1.O=C([O-])C(F)(F)F, “oxygen consumption rate” read 89.4% (MT-CYB/UQCRFS1; complex III-dependent respiration, Seahorse XF96; HCT-116; 0.1 µM, 24 h; reference: control).
O=C(O)C1CCCNC1 (stereo not drawn) — result for “normalised MST signal”: -0.0944 (Sodium- and chloride-dependent taurine transporter (SLC6A6, Homo sapiens, UniProt P31641, Y138A); binding, microscale thermophoresis; 30.5 nM, room temperature, added: 50 nM labelled protein; higher = more binding).
CC(C)C[C@H](NC(=O)[C@@H](N)[C@@H](C)O)C(=O)N[C@@H](CCC(N)=O)C(=O)N1CCC[C@H]1C(=O)N1CCC[C@H]1C(=O)N[C@@H](C)C(=O)N[C@@H](CO)C(=O)N[C@@H](CO)C(=O)N[C@@H](CCCNC(=N)N)C(=O)N[C@H](CCCNC(=N)N)C(=O)N[C@@H](CCCNC(=N)N)C(=O)N[C@@H](Cc1c[nH]cn1)C(=O)N[C@@H](Cc1ccccc1)C(=O)N[C@@H](Cc1c[nH]cn1)C(=O)N[C@@H](Cc1c[nH]cn1)C(=O)N[C@@H](C)C(=O)N[C@@H](CC(C)C)C(=O)N1CCC[C@H]1C(=O)N1CCC[C@H]1C(=O)NCC(=O)N[C@@H](CCCNC(=N)N)C(=O)O has an Emax of 147 % basal (C3AR1; β-arrestin recruitment, agonist, Tango; HTLA transfected).
For NC(=O)NO, “oxygen consumption rate” read 93.1 ± 5.34% (MT-CYB/UQCRFS1; complex III-dependent respiration, Seahorse XF96; HCT-116; 1000 µM, 24 h; reference: control).
CN(O)N=Nc1ccc(S(=O)(=O)Nc2nccs2)cc1 has an inhibition of 60 ± 0.04% (α-glucosidase, rat intestine; enzyme activity; 300 µg/mL, added: 4-nitrophenyl α-D-glucopyranoside).
CC(C)CC(=O)N[C@H](C(=O)N[C@H](C(=O)N[C@@H](CC(C)C)[C@@H](O)CC(=O)N[C@@H](C)C(=O)N[C@@H](CC(C)C)[C@@H](O)CC(=O)NCCCC[C@H](NC(=O)CCOCCOCCNC(=O)CN1CCN(CC(=O)O)CCN(CC(=O)O)CC1)C(=O)O)C(C)C)C(C)C — result for “dissociation rate constant”: 0.000215 s⁻¹ (Cathepsin D (CTSD, Homo sapiens, UniProt P07339); surface plasmon resonance).
For CCCCC[C@@H]1OC(=O)[C@@H](C)N(C)C(=O)[C@H](CCCCC)OC(=O)[C@@H](C)N(C)C(=O)[C@H](CC(=O)O)OC(=O)[C@@H](C)N(C)C(=O)[C@H](CCCCC)OC(=O)[C@@H](C)N(C)C1=O, “open dwell time constant T1” read 1.5 ± 1.4 ms (ryanodine receptor 2 (Sus scrofa, UniProt A0A5G2R1W3); single-channel gating, planar lipid bilayer; 50 µM, pCa 7, porcine).
With O=C1Nc2ccc(Br)cc2C1O (stereo not drawn) the product formed was 9.3 M (Dehaloperoxidase B ferric; product, HPLC; 5 min, pH 7, 25 °C, enzyme 10 µM, added: 5-bromoindole and H2O2 500 µM each).
For CC(=O)N[C@@H](CO)C(=O)N[C@@H](CC(C)C)C(=O)N[C@@H](CCC(=O)O)C(=O)N[C@@H](CCC(=O)O)C(=O)N1CCC[C@H]1C(=O)N[C@@H](Cc1c[nH]cn1)C(=O)N[C@@H](CO)C(=O)N1CCC[C@H]1C(=O)N[C@@H](CCC(=O)O)C(=O)N[C@H](C(=O)NCC(=O)N[C@@H](CCC(=O)O)C(=O)N[C@@H](CCCCN)C(=O)N[C@H](C(=O)N[C@H](C(=O)N[C@@H](C)C(=O)NCC(=O)N[C@@H](CCC(=O)O)C(=O)N[C@H](C(=O)N[C@@H](CC(N)=O)C(N)=O)C(C)C)C(C)C)C(C)C)[C@@H](C)O, the TΔS was -9.18 kcal/mol (KEAP1 Kelch domain; binding, ITC; pH 7, 298.15 K).
C=CC(=O)N1CCN(c2nc(OC[C@@H]3CCCN3C)nc3c(F)c(-c4nc(N)cc(C)c4C(F)(F)F)c(Cl)cc23)[C@@H](C)C1: “dissociation rate constant koff” 0.117 ± 0.0019 s⁻¹ (GTPase KRas, GDP-bound (KRAS, Homo sapiens, UniProt P01116, A146T); SPR).
CCCN(O)N=Nc1ccc(S(=O)(=O)Nc2nccs2)cc1 has an inhibition of 20 ± 0.013% (α-glucosidase, rat intestine; enzyme activity; 60 µg/mL, added: 4-nitrophenyl α-D-glucopyranoside).
With O=c1nc(SCc2cc(F)cc(C(F)(F)F)c2)nc(SCc2csc3ccc(Cl)cc23)[nH]1 the decatenated DNA was 0% (DNA topoisomerase 2-beta (TOP2B, Homo sapiens, UniProt Q02880); decatenation; 125 µM, replicate 2).
For Nc1ncnc2c1ncn2[C@@H]1O[C@H](COP(=O)(O)OP(=O)(O)O)[C@@H](O)[C@H]1O, the ΔH was -0.415 kcal/mol (GUK1; ITC; molar ratio 1.955).
Nc1ncnc2c1ncn2[C@@H]1O[C@H](COP(=O)(O)CP(=O)(O)OP(=O)(O)O)[C@@H](O)[C@H]1O has a calcium influx of 0% and 1.67% (P2X purinoceptor 1 (P2RX1, Homo sapiens, UniProt P51575, D170A); calcium influx; 100 nM; reference: ionomycin response).
Under “oxygen consumption rate”, NC(=O)NOCCCCCCCCCC[P+](c1ccccc1)(c1ccccc1)c1ccccc1.O=C([O-])C(F)(F)F is recorded as 74.1 ± 7.58% (MT-CYB/UQCRFS1; complex III-dependent respiration, Seahorse XF96; HCT-116; 12.5 µM, 24 h; reference: control).
Cc1cccc(N2CC(C(=O)O)CC2=O)c1 (stereo not drawn) — result for “log fold enrichment”: 0.0347 (YTH domain-containing family protein 2 (YTHDF2, Homo sapiens, UniProt Q9Y5A9); binding, affinity selection mass spectrometry; reference: other proteins in batch).
